# Published values of several laboratories.
# Protocols differ between the studies behind these lines. Numbers after ± are the reported error.
# CSNK1E: Casein kinase I isoform epsilon (CSNK1E, Homo sapiens, UniProt P49674)
# Chain of UniProt P49674 (whole entry, looked up): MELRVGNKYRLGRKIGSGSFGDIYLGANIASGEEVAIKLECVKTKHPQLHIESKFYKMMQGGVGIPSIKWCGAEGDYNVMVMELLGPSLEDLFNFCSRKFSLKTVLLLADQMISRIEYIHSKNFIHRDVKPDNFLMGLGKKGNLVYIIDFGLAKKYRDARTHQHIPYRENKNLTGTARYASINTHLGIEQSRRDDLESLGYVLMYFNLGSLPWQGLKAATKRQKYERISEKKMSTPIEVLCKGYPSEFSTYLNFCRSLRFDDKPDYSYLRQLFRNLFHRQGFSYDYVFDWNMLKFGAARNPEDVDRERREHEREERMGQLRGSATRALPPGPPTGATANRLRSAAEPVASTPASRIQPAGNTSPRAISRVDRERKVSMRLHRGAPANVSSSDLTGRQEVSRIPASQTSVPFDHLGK
# Chain of UniProt O75676 (whole entry, looked up): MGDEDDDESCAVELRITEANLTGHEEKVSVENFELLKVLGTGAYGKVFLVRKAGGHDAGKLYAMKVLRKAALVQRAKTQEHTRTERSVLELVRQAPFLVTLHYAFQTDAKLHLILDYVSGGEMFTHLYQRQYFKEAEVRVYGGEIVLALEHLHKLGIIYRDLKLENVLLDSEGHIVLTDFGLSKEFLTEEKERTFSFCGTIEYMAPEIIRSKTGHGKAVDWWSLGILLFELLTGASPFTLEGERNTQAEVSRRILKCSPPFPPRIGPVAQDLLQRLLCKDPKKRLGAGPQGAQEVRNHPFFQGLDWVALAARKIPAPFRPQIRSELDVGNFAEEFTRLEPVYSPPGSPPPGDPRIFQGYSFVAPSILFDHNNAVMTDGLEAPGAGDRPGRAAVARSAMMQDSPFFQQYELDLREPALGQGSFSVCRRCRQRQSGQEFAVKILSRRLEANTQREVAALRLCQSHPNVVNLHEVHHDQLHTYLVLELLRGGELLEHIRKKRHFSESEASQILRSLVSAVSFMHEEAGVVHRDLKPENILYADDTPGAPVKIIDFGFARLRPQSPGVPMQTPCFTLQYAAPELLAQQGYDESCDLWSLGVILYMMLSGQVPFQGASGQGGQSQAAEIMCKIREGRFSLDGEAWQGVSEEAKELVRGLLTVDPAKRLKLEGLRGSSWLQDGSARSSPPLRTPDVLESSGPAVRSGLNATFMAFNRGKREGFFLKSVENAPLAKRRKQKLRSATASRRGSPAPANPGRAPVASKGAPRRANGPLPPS
# Chain of UniProt Q52WX2 (whole entry, looked up): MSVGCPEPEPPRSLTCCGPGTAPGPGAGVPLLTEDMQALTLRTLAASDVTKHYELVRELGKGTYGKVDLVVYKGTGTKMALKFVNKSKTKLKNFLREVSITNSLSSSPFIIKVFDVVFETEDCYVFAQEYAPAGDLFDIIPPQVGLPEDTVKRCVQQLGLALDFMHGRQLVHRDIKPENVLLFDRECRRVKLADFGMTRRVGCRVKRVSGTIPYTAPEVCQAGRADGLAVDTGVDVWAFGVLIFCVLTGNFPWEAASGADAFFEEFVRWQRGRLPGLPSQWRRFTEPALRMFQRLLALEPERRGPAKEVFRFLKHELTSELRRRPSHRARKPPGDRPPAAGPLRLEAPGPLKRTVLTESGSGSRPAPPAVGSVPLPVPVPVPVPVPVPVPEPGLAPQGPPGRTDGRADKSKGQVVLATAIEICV
# Chain of UniProt P46734 (whole entry, looked up): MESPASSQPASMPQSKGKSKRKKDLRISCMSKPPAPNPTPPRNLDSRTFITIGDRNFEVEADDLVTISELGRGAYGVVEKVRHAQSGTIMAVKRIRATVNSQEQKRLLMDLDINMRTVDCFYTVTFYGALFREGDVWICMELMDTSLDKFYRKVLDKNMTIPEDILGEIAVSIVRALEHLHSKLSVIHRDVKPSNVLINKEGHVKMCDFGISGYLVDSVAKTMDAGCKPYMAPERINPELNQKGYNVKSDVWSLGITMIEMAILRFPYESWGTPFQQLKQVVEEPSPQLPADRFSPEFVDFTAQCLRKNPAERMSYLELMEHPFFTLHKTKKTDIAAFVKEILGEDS
# Chain of UniProt Q8NFD2 (whole entry, looked up): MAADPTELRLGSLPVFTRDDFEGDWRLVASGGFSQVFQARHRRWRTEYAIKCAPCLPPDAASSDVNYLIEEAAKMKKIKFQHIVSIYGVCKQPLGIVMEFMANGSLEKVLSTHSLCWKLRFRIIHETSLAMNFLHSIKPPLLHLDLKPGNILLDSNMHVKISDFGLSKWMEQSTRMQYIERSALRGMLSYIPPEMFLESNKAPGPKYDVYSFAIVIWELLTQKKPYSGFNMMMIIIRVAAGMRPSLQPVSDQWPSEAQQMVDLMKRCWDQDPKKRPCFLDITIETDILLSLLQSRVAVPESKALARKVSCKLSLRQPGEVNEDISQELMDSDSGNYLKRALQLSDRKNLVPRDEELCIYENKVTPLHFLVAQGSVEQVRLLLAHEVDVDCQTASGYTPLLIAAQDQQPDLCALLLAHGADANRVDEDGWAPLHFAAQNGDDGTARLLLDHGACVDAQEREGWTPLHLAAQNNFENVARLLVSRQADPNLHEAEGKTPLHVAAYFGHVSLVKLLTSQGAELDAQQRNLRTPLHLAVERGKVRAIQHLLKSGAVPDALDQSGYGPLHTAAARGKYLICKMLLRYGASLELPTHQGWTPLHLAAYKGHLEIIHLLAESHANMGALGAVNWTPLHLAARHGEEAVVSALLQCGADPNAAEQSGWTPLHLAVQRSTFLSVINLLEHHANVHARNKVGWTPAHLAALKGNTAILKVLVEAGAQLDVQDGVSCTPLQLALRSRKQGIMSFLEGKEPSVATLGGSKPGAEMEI
# Chain of UniProt Q99572 (whole entry, unmodified, looked up): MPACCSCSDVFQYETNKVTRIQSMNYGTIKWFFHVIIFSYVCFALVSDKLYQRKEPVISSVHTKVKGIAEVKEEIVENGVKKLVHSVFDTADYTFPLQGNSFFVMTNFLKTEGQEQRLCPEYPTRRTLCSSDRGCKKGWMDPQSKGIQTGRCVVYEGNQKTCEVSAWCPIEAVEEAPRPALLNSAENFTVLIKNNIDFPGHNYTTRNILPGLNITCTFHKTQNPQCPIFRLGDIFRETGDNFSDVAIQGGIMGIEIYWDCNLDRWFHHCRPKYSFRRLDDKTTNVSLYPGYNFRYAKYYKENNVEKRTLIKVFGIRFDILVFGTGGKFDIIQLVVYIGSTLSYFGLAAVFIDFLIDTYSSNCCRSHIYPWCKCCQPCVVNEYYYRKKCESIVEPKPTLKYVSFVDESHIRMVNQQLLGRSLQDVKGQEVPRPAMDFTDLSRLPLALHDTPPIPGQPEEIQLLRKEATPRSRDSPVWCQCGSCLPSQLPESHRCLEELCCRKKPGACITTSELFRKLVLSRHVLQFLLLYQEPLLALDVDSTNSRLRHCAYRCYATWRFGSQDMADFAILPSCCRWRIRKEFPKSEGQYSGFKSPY
# Chain of UniProt Q16288 (whole entry, looked up): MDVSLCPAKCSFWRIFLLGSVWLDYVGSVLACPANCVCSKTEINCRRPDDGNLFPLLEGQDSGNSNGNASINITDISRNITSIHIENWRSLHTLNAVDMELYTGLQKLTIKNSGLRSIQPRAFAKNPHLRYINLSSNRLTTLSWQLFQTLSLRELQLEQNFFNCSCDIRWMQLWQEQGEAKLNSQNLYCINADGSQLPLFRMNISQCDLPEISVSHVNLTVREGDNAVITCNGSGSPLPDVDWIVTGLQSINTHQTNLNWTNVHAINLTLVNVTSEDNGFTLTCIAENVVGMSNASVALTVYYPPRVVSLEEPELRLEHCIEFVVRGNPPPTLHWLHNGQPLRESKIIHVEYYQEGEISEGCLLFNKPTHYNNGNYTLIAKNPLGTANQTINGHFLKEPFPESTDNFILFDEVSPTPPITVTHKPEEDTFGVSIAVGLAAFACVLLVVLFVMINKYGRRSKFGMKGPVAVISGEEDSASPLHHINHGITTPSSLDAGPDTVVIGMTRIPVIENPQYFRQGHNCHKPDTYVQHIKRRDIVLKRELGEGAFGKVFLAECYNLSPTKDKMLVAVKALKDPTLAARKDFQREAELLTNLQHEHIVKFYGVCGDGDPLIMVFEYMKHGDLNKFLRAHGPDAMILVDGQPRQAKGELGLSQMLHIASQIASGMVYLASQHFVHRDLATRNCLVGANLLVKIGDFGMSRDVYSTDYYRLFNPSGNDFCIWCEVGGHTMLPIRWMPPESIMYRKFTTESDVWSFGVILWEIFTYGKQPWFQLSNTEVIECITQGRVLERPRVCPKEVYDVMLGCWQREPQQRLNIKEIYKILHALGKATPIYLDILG
SMILES,target,test,system,setting,scale,remaining activity [%]
COc1cc(-c2cncc3c2CN(C)Cc2cc(N4CCNCC4)ccc2-3)cc(OC)c1OC,"MAP2K3 (Homo sapiens, UniProt P46734)",kinase activity,,"1 µM, human enzyme, together with: ATP 10 µM",reference: DMSO control,93
COc1ccc(F)cc1C(=O)NCc1ccc(-c2nn([C@@H](C)C(F)(F)F)c(N)c2C(N)=O)cc1,"RPS6KA4 (Homo sapiens, UniProt O75676)","kinase activity, inhibitor, HotSpot radiometric",,"1000 nM, together with: ATP at Km",,97.1 ± 1.6
C=CC(=O)N1CCC[C@@H](n2nc(-c3ccc(Oc4ccccc4)cc3)c3c(N)ncnc32)C1,"NTRK3 (Homo sapiens, UniProt Q16288)",,,10 µM,,77.4
COc1cc(N2CCN(C)CC2)ccc1Nc1nc(N)n(C(=S)NCc2c(Cl)cccc2Cl)n1,"ANKK1 (Homo sapiens, UniProt Q8NFD2)",enzyme activity,,10 µM,reference: control,15
O=C(NC1CCC1)c1ccc2nc(-c3cccc(NS(=O)(=O)NCCN4CCCCC4)c3)cn2c1,"SBK1 (Homo sapiens, UniProt Q52WX2)",enzyme activity,,10 µM,,98
O=C(O)c1ccc(Nc2ncc3c(n2)-c2ccc(Cl)cc2C(c2c(F)cccc2F)=NC3)cc1,yeast CK1,"inhibitor, biochemical kinase",,1 µM,,115
C=CC(=O)N1CCC[C@@H](n2nc(-c3ccc(Oc4ccccc4)cc3)c3c(N)ncnc32)C1,CSNK1E,"kinase activity, inhibitor, HotSpot radiometric",,"100 nM, together with: ATP 10 µM",,82.9 ± 2.2
CNc1ncc2c(/C=C/C(=O)N3CCC(OC)CC3)nn(Cc3cccc(C(F)(F)F)c3)c2n1,CSNK1E,"kinase activity, inhibitor",,1 µM,reference: untreated control,101
C=CC[C@H]1c2ccc(OC)c(OC)c2CN2CCc3cc4c(cc3[C@@H]12)OCO4,"P2X purinoceptor 7 (P2RX7, Homo sapiens, UniProt Q99572)","ATP-evoked current, inhibitor, whole-cell patch clamp",HEK293 transfected,1 µM,,89.9
COc1cc(Nc2ncc3c(n2)-c2ccc(Cl)cc2C(c2c(F)cccc2OC)=NC3)ccc1C(=O)O,PRKCG,kinase activity,,1 µM,,107

# Repeated from above:
SMILES,target,test,system,setting,scale,remaining activity [%]
COc1cc(-c2cncc3c2CN(C)Cc2cc(N4CCNCC4)ccc2-3)cc(OC)c1OC,"MAP2K3 (Homo sapiens, UniProt P46734)",kinase activity,,"1 µM, human enzyme, together with: ATP 10 µM",reference: DMSO control,93
